Experimental data collected from several papers.
Lines come from different studies, so protocols differ.

`COc1cc2nccc(Oc3ccc(NC(=O)c4cc5c(n(-c6ccccc6)c4=O)CCCC5=O)nc3)c2cc1OC` gave a Cmax ratio of 1.13 (food effect; human; oral, 10 mg; reference: day 57 over day 28).
For `CC(C)c1nc(N(C)S(C)(=O)=O)nc(-c2ccc(F)cc2)c1/C=C/[C@@H](O)C[C@@H](O)CC(=O)O`, the Cmax ratio was 323% (healthy human volunteers, plasma; oral, BCRP probe substrate, together with: momelotinib; reference: compound alone).
With `CC(C)[C@@H]1CC[C@@H](C)C[C@H]1OC(=O)O[C@@H](C)OC(=O)[C@H]1[C@@H]2C[C@H](F)[C@@](N)(C(=O)O)[C@@H]21` the Cmax ratio was 0.553 (human, plasma; oral, 10 mg, single dose; reference: fed over fasted).
The Cmax ratio of `N#CCNC(=O)c1ccc(-c2ccnc(Nc3ccc(N4CCOCC4)cc3)n2)cc1` is reported as 99.1% (healthy human volunteers, plasma; oral, together with: multiple-dose rifampin; reference: compound alone).
`NC1(C(=O)N[C@@H](CCO)c2ccc(Cl)cc2)CCN(c2nc[nH]c3nccc2-3)CC1` gave a Cmax ratio of 0.64 (human, plasma; together with: with or without enzalutamide; reference: cycle 2 over cycle 0).
The Cmax ratio of `O=C(c1nc2n(n1)[C@H](c1ccccc1)C[C@@H]2F)C1CC1` is reported as 1.21 (human; oral, 75 mg; reference: high-fat meal over fasted).
For `CCCCC1=NC2(CCCC2)C(=O)N1Cc1ccc(-c2ccccc2S(=O)(=O)Nc2noc(C)c2C)c(COCC)c1`, the Cmax ratio was 1.22 (healthy humans, plasma; oral, 200 mg; reference: fed over fasted).
The Cmax ratio of `C=CC(=O)NC1CCN(c2ncc3ncnc(Nc4ccc(Oc5ccc6c(c5)ncn6C)c(C)c4)c3n2)CC1` is reported as 58.8% (healthy male humans, plasma; oral, together with: carbamazepine; reference: with over without carbamazepine).
`N[C@]1(C(=O)O)[C@H]2[C@@H](C[C@@H]1F)[C@@H]2C(=O)O` gave a Cmax ratio of 0.427 (human, both sexes, plasma; oral, 10 mg, single dose; reference: fed over fasted).
The Cmax ratio of `COc1ccc2nc([S@@+]([O-])Cc3ncc(CO)c(OC)c3C)[nH]c2c1` is reported as 8.2 fold (human; rifampicin induction session; reference: (R)-OH-omeprazole over compound).
With `C[C@H](Oc1ccc(Br)cc1-c1ccon1)C(=O)O` the Cmax ratio was 1.3 (human, plasma; 800 mg single dose; reference: female over male).
With `C=CC(=O)NC1CCN(c2ncc3ncnc(Nc4ccc(Oc5ccc6c(c5)ncn6C)c(C)c4)c3n2)CC1` the Cmax ratio was 126% (human, male, plasma; oral, 240 mg, adjusted geometric means; reference: fed over fasted).

Some of these lines once more:
For `CCCCC1=NC2(CCCC2)C(=O)N1Cc1ccc(-c2ccccc2S(=O)(=O)Nc2noc(C)c2C)c(COCC)c1`, the Cmax ratio was 1.22 (healthy humans, plasma; oral, 200 mg; reference: fed over fasted).
With `C=CC(=O)NC1CCN(c2ncc3ncnc(Nc4ccc(Oc5ccc6c(c5)ncn6C)c(C)c4)c3n2)CC1` the Cmax ratio was 126% (human, male, plasma; oral, 240 mg, adjusted geometric means; reference: fed over fasted).
